Measurements from different studies.
Compare with care: the assays were run in different laboratories. Values joined by “and” are separate records of one study, mostly repeats; a detail may differ. ± gives the spread as reported.

For `C1=C/COCc2cc(ccc2OCCN2CCCC2)Nc2nccc(n2)-c2cccc(c2)COC/1`, the body weight was 18 g and 18.2 g and 18.4 g and 20.2 g and 18.6 g and 17.7 g (BALB/c mice, rhEPO-induced polycythemia; 120 mg/kg, day 1).
The body weight of `CCCCc1nc2cc(/C=C/C(=O)NO)ccc2n1CCN(CC)CC` is reported as 96.8% (mouse, MV4-11 xenograft; 25 mg/kg daily, day 21; reference: baseline).
The body weight of `O=C(O)CSc1nnc(Br)n1-c1ccc(C2CC2)c2ccccc12` is reported as 35.8 g and 36.4 g and 39.2 g and 29.4 g and 32 g and 36.2 g (KM mouse, chronic hyperuricaemia model; dose not given, day 18).
`Cc1cnc(Nc2ccc(OCCN3CCCC3)cc2)nc1Nc1cccc(S(=O)(=O)NC(C)(C)C)c1` gave a body weight of 18.3 g and 19.4 g and 18.4 g and 17.7 g and 17.9 g and 19.3 g (BALB/c mice, rhEPO-induced polycythemia; 120 mg/kg, day 1).
`COc1ccc(CNc2nc(-c3ccc(C(=O)O)cc3)nc3sc4ccccc4c23)cc1Cl` gave a body weight of 18.4 g and 20.2 g and 20.3 g and 21.8 g (NSG mice; dose not given, day 5).
The body weight of `CCc1cc(C(=O)NC)c2nccc(N3CCc4c(cc(Cn5ccnc5)cc4-c4cn(C)nc4C(F)(F)F)C3=O)c2c1` is reported as 222 ± 4.8 g (Sprague Dawley rat; oral, 100 mg/kg once daily, day 1, 7-day toxicology study).
The body weight of `O=C1NC(=O)/C(=C/c2ccc3ncnc(N4CCC(F)(F)CC4)c3n2)S1` is reported as 16 g and 18.7 g and 15.6 g and 16.1 g (NSG mice; dose not given, day 4).
With `Cc1nc(-c2ccc(OCC(C)C)c(C#N)c2)sc1C(=O)O` the body weight was 25.6 g and 26.7 g and 28.2 g and 26.9 g and 26.8 g and 25.3 g (KM mouse, chronic hyperuricaemia model; dose not given, day 2).
For `COc1ccc(CNc2nc(-c3ccc(C(=O)O)cc3)nc3c2c2ccccc2n3C)cc1Cl`, the body weight was 22.8 g and 22.3 g and 23.9 g and 21.5 g (NSG mice; dose not given, day 7 of treatment).
With `COc1cc(N2CCC(N3CCN(C)CC3)CC2)ccc1Nc1ncc(Cl)c(Nc2ccccc2P(C)(C)=O)n1` the body weight was 25 g and 26.5 g and 23.9 g and 22.9 g and 23.8 g (nude mice, NCI-H3122 xenograft; intraperitoneal, 10 mg/kg every other day, day 15).

A few entries again:
The body weight of `CCCCc1nc2cc(/C=C/C(=O)NO)ccc2n1CCN(CC)CC` is reported as 96.8% (mouse, MV4-11 xenograft; 25 mg/kg daily, day 21; reference: baseline).
